Published values pooled from the literature.
Lines come from different studies, so protocols differ. Numbers after ± are the reported error.
Organism: Toxoplasma gondii

SMILES | assay | test system | setting | how to read | endpoint | result
N#Cc1nc(N2CCOCC2)nc(N(Cc2ccc(F)cc2)CC2CCCNC2)n1 (stereo not drawn) | qPCR plaque | HFF host cells, bradyzoite cysts | 5 µM, 7 days daily | baseline: DMSO | reduction of cyst viability | < 20%
O=c1c2ccc(Oc3ccc(OC(F)(F)F)cc3)cc2[nH]c2cccc(F)c12 | parasite growth, beta-galactosidase reporter | HFF, RH | – | – | EC50 | 0.628 nM
CCCCCCCCC1=C(CCCCCCC(=O)OC)C1 | – | Vero, RH | – | baseline: CC50 over EC50 | selectivity index | > 2.8
COc1ccc(NC(=O)N2CCCN3CCC(c4ccc(C#Cc5ccccc5)cc4)C3C2)cc1 (stereo not drawn) | parasite growth | HFF, RH type I luciferase | – | – | EC90 | 460 ± 50 nM
N#Cc1nc(N2CCOCC2)nc(N(Cc2ccc(F)cc2)CC2CCCCC2)n1 | qPCR plaque | HFF host cells, bradyzoite cysts | 5 µM, 7 days daily | baseline: DMSO | reduction of cyst viability | ~80%
COc1ccc(NC(=O)N2CCCN3CCC(c4ccc(C#CC5CCCCC5)cc4)C3C2)cc1 (stereo not drawn) | parasite growth, luciferase | HFF, RH type I luciferase | – | – | EC90 | 710 nM
CCCCCCCCC1=C(CCCCCCCCC(=O)OC)C1 | – | Vero, RH | – | baseline: CC50 over EC50 | selectivity index | > 2.3
COc1ccc(NC(=O)N2CCCN3CCC(c4ccc(C#Cc5cnccn5)cc4)C3C2)cc1 (stereo not drawn) | parasite growth | HFF, RH type I luciferase | – | – | EC90 | > 10000 nM
O=C(CCCN1C(=O)c2cccc3cccc(c23)C1=O)NO | parasite growth | HFF | 48 h, intracellular | – | IC50 | 50.9 µM

Excerpt of the above:
SMILES | assay | test system | setting | how to read | endpoint | result
N#Cc1nc(N2CCOCC2)nc(N(Cc2ccc(F)cc2)CC2CCCCC2)n1 | qPCR plaque | HFF host cells, bradyzoite cysts | 5 µM, 7 days daily | baseline: DMSO | reduction of cyst viability | ~80%
